Measurements from different studies.
Each line is one published result; not all experiments were run side by side. Numbers after ± are the reported error.

`N=C(N)NCCC[C@@H]1NC(=O)[C@H](CCCCNC(=O)CCOCCOCCOCCOCCNC(=O)CN2CCN(CC(=O)O)CCN(CC(=O)O)CCN(CC(=O)O)CC2)NC(=O)[C@@H](Cc2ccccc2)NC(=O)[C@H](CC(=O)O)NC(=O)CNC1=O` [indium-111 labelled] has a tissue uptake of 1.43 ± 0.09 %ID/g (athymic nude mice, female, U-87 MG glioma xenograft, U-87 MG tumour; intravenous, 3 µCi, 24 h).
Under “time to peak tumour/non-tumour ratio”, `N=C(N)NCCC[C@@H]1NC(=O)CNC(=O)[C@H](CC(N)=O)NC(=O)[C@@H](NC(=O)CNC(=O)CNC(=O)CNC(=O)CN2CCN(CC(=O)O)CCN(CC(=O)O)CCN(CC(=O)O)CC2)CSSC[C@@H](C(=O)O)NC1=O` is recorded as 2 h (T1-weighted MRI; BALB/c nude mouse, HT-1080 xenograft; i.p.).
`N=C(N)NCCC[C@@H]1NC(=O)[C@H](CCCCNC(=O)CC[C@H](NC(=O)CCOCCOCCOCCOCCNC(=O)CC[C@H](NC(=O)CN2CCN(CC(=O)O)CCN(CC(=O)O)CCN(CC(=O)O)CC2)C(=O)NCCOCCOCCOCCOCCC(=O)N[C@@H](CCC(=O)NCCCC[C@@H]2NC(=O)[C@@H](Cc3ccccc3)NC(=O)[C@H](CC(=O)O)NC(=O)CNC(=O)[C@H](CCCNC(=N)N)NC2=O)C(=O)NCCCC[C@@H]2NC(=O)[C@@H](Cc3ccccc3)NC(=O)[C@H](CC(=O)O)NC(=O)CNC(=O)[C@H](CCCNC(=N)N)NC2=O)C(=O)NCCCC[C@@H]2NC(=O)[C@@H](Cc3ccccc3)NC(=O)[C@H](CC(=O)O)NC(=O)CNC(=O)[C@H](CCCNC(=N)N)NC2=O)NC(=O)[C@@H](Cc2ccccc2)NC(=O)[C@H](CC(=O)O)NC(=O)CNC1=O` [indium-111 labelled] gave a tissue uptake of 0.21 ± 0.12 %ID/g (female athymic nude mice, eyes; intravenous, 3 µCi, 72 h, U-87 MG glioma xenograft).
For `CCCC[C@H](NC(=O)CCCCCCCNC(=O)c1ccc(NN)nc1)C(=O)N[C@H]1CC(=O)NCCCC[C@@H](C(N)=O)NC(=O)[C@H](Cc2c[nH]c3ccccc23)NC(=O)[C@H](CCCNC(=N)N)NC(=O)[C@@H](Cc2ccccc2)NC(=O)[C@H](Cc2c[nH]cn2)NC1=O` [technetium-99m labelled], the uptake was 0.94 ± 0.72 %ID/g (C57 mouse, B16/F1 melanoma, spleen; intravenous, 0.5 h).
`CCCC[C@H](NC(=O)CNC(=O)CNC(=O)c1ccc(NN)nc1)C(=O)N[C@H]1CC(=O)NCCCC[C@@H](C(N)=O)NC(=O)[C@H](Cc2c[nH]c3ccccc23)NC(=O)[C@H](CCCNC(=N)N)NC(=O)[C@@H](Cc2ccccc2)NC(=O)[C@H](Cc2c[nH]cn2)NC1=O` [technetium-99m labelled] gave an uptake of 0.05 ± 0.04 %ID/g (C57 mouse, B16/F1 melanoma, pancreas; 2 h, with: NDP-MSH 6.07 nmol blockade).
The intact peptide of `CCCC[C@H](NC(=O)[C@H](Cc1cccs1)NC(=O)[C@H](Cc1c[nH]cn1)NC(=O)CCNC(=O)[C@@H](NC(=O)[C@H](C)NC(=O)[C@H](Cc1c[nH]c2ccccc12)NC(=O)[C@H](CCC(N)=O)NC(=O)[C@H](Cc1cccs1)NC(=O)CN1CCC(NC(=O)CN(CCN(CCN(CC(=O)O)CC(=O)O)CC(=O)O)CC(=O)O)CC1)C(C)C)C(N)=O` [indium-111 labelled] is reported as 2.8 ± 0.4% (radio-HPLC; male Swiss nu/nu mice, blood; intravenous, 1 nmol, 15 min).
The emission maximum of `CSCC[C@H](NC(=O)[C@H](CC(C)C)NC(=O)CNC(=O)[C@H](Cc1ccccc1)NC(=O)[C@H](Cc1ccccc1)NC(=O)[C@H](CCC(N)=O)NC(=O)[C@H](CCC(N)=O)NC(=O)[C@@H]1CCCN1C(=O)[C@H](CCCCNC(=O)c1ccc(-c2c3ccc(=[N+](C)C)cc-3oc3cc(N(C)C)ccc23)c(C(=O)[O-])c1)NC(=O)[C@@H]1CCCN1C(=O)[C@@H](N)CCCNC(=N)N)C(N)=O` is reported as 575 nm (PBS; 10 nM, pH 7.4).
For `CSCC[C@H](NC(=O)[C@H](CC(C)C)NC(=O)[C@H](Cc1c[nH]cn1)NC(=O)CNC(=O)[C@@H](NC(=O)[C@H](C)NC(=O)[C@H](Cc1c[nH]c2ccccc12)NC(=O)[C@H](CCC(N)=O)NC(=O)CCCCCNC(=O)CN1CCN(CC(=O)O)CCN(CC(=O)O)CC1)C(C)C)C(N)=O` [gallium-68 labelled], “mean tumour uptake” read 2.04 ± 0.34 %ID/g (microPET imaging; nude mouse PC-3 xenograft, PC-3 tumour; intravenous, 3.7 MBq, 60 min).
`N=C(N)NCCC[C@@H]1NC(=O)[C@H](CCCCNC(=O)CC[C@H](NC(=O)[C@H](CCCCNC(=O)c2ccc(NN)nc2)NC(=O)c2ccc(NN)nc2)C(=O)NCCCC[C@@H]2NC(=O)[C@@H](Cc3ccccc3)NC(=O)[C@H](CC(=O)O)NC(=O)CNC(=O)[C@H](CCCNC(=N)N)NC2=O)NC(=O)[C@@H](Cc2ccccc2)NC(=O)[C@H](CC(=O)O)NC(=O)CNC1=O` [technetium-99m labelled] has a tissue ratio of 4.7 ± 1.22 (female athymic nude mice; intravenous, 1 h, U-87 MG glioma xenograft; reference: tumour over blood).
`N=C(N)NCCC[C@@H]1NC(=O)[C@H](CCCCNC(=O)CCOCCOCCOCCOCCNC(=O)CC[C@H](NC(=O)CCOCCOCCOCCOCCNC(=O)CC[C@H](NC(=O)CN2CCN(CC(=O)O)CCN(CC(=O)O)CCN(CC(=O)O)CC2)C(=O)NCCOCCOCCOCCOCCC(=O)N[C@@H](CCC(=O)NCCOCCOCCOCCOCCC(=O)NCCCC[C@@H]2NC(=O)[C@@H](Cc3ccccc3)NC(=O)[C@H](CC(=O)O)NC(=O)CNC(=O)[C@H](CCCNC(=N)N)NC2=O)C(=O)NCCOCCOCCOCCOCCC(=O)NCCCC[C@@H]2NC(=O)[C@@H](Cc3ccccc3)NC(=O)[C@H](CC(=O)O)NC(=O)CNC(=O)[C@H](CCCNC(=N)N)NC2=O)C(=O)NCCOCCOCCOCCOCCC(=O)NCCCC[C@@H]2NC(=O)[C@@H](Cc3ccccc3)NC(=O)[C@H](CC(=O)O)NC(=O)CNC(=O)[C@H](CCCNC(=N)N)NC2=O)NC(=O)[C@@H](Cc2ccccc2)NC(=O)[C@H](CC(=O)O)NC(=O)CNC1=O` [indium-111 labelled] gave a tissue uptake of 0.67 ± 0.09 %ID/g (female athymic nude mice, muscle; intravenous, 3 µCi, 4 h, U-87 MG glioma xenograft).

Excerpt of the above:
The intact peptide of `CCCC[C@H](NC(=O)[C@H](Cc1cccs1)NC(=O)[C@H](Cc1c[nH]cn1)NC(=O)CCNC(=O)[C@@H](NC(=O)[C@H](C)NC(=O)[C@H](Cc1c[nH]c2ccccc12)NC(=O)[C@H](CCC(N)=O)NC(=O)[C@H](Cc1cccs1)NC(=O)CN1CCC(NC(=O)CN(CCN(CCN(CC(=O)O)CC(=O)O)CC(=O)O)CC(=O)O)CC1)C(C)C)C(N)=O` [indium-111 labelled] is reported as 2.8 ± 0.4% (radio-HPLC; male Swiss nu/nu mice, blood; intravenous, 1 nmol, 15 min).
The emission maximum of `CSCC[C@H](NC(=O)[C@H](CC(C)C)NC(=O)CNC(=O)[C@H](Cc1ccccc1)NC(=O)[C@H](Cc1ccccc1)NC(=O)[C@H](CCC(N)=O)NC(=O)[C@H](CCC(N)=O)NC(=O)[C@@H]1CCCN1C(=O)[C@H](CCCCNC(=O)c1ccc(-c2c3ccc(=[N+](C)C)cc-3oc3cc(N(C)C)ccc23)c(C(=O)[O-])c1)NC(=O)[C@@H]1CCCN1C(=O)[C@@H](N)CCCNC(=N)N)C(N)=O` is reported as 575 nm (PBS; 10 nM, pH 7.4).
